Experimental data of several laboratories.
Numbered parts are unrelated; each lists some results of a single study. Substitutions count along the parent as printed.

Study 1 — technique: RNA Bind-n-Seq; form: RNA; medium: in vitro; concentration: 200 nM; setting: whole 134-nt RNA, ends assumed; with: 150 mM KCl; reference: input library; reading: higher = stronger binding; endpoint: log2 enrichment
Target: Ras GTPase-activating protein-binding protein 1, full length (G3BP1, Homo sapiens, UniProt Q13283)
Chain of UniProt Q13283 (whole entry, looked up): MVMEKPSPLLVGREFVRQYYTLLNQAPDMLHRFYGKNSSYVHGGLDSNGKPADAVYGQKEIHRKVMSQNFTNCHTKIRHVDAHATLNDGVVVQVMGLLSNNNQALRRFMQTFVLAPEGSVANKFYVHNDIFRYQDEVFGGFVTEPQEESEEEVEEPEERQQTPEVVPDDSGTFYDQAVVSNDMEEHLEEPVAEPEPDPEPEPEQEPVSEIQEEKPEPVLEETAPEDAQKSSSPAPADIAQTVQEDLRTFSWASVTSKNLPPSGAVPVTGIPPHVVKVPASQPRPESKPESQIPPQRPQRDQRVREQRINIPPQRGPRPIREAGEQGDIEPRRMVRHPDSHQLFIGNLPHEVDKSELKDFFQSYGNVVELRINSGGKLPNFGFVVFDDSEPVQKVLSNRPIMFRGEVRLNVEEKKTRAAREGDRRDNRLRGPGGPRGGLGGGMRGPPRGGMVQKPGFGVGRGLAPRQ
Shared flanks, not repeated: GGGAGUUCUACAGUCCGACGAUC … UGGAAUUCUCGGGUGUCAAGG
AAGUCCUGUGCUACACAUCGUAUGUACCGAAUCGGGUUUGGGGUUUGGGGUUUGGGGAAAGUAUUAUGUUACGCCGUUCGGAUCUGCACU: 0.224
UCAAGUCCUGUGCUACACAUCGUAUGUACCGAAUCGGGGCCGGGGCCGGCCGGGAAAGUAUUAUGUUACGCCGUUCGGAUCUGCACUUCC: -0.352
GUCCUGUGCUACACAUCGUAUGUACCGAAUCAAAUUUUUUUAAACCCCCAAAUUUAAAAAAGUAUUAUGUUACGCCGUUCGGAUCUGCAC: -0.315
CUCAAGUCCUGUGCUACACAUCGUAUGUACCGAAUCGGGGCGGGGCGGGGCGGAAAGUAUUAUGUUACGCCGUUCGGAUCUGCACUUCCA: 1.11
CAAGUCCUGUGCUACACAUCGUAUGUACCGAAUCGGGGUGGGGUUUGGGGUGGGGAAAGUAUUAUGUUACGCCGUUCGGAUCUGCACUUC: 1.06
UCCUGUGCUACACAUCGUAUGUACCGAAUCAAAUUUUUUUAAAUUUUUUUAAAUUUAAAAAAGUAUUAUGUUACGCCGUUCGGAUCUGCA: -0.793
UAACUUUAGAGGAGGAUCUGAUGGAUAUGGCAGUGGACGUGGAUUUGGGGAUGGCUAUAAUGGGUAUGGAGGAGGACCCGGAGGUGGCAA: 0.0616
CUGUGCUACACAUCGUAUGUACCGAAUCGGGCCCCCCCGGCCCCCCCGGGGCCCCCCCGGGGAAAGUAUUAUGUUACGCCGUUCGGAUCU: -1.07
CCUCAAGUCCUGUGCUACACAUCGUAUGUACCGAAUCGGGUGGGUGGGAGGGAAAGUAUUAUGUUACGCCGUUCGGAUCUGCACUUCCAG: 0.81
CUCAAGUCCUGUGCUACACAUCGUAUGUACCGAAUCGGGGCCGGCCGGGCCGGAAAGUAUUAUGUUACGCCGUUCGGAUCUGCACUUCCA: -0.274
UCCUGUGCUACACAUCGUAUGUACCGAAUCGGGGAAAAAAGGAAAAAAGGGAAAAAAGGAAAGUAUUAUGUUACGCCGUUCGGAUCUGCA: -0.401
AGUCCUGUGCUACACAUCGUAUGUACCGAAUCGGCCCCCGGGCCCCCGGGCCCCCGGAAAGUAUUAUGUUACGCCGUUCGGAUCUGCACU: -1.17
CUGUGCUACACAUCGUAUGUACCGAAUCAAAUUUUUUUAAACCCCCCCAAACCCCCCCAAAAAAGUAUUAUGUUACGCCGUUCGGAUCUG: -0.0956
CACAGACAACACGCACCCACACAGACACAGAGGGAAGGGGUUGGGAUGGGGACAGGGUGCACAGCAGGGAGGGGUAGGACCCCAGCCCCU: 1.79

Study 2 — technique: aptamer microarray, sandwich; form: DNA with 2'F-ANA; medium: in vitro; concentration: 200 nM; with: Cy3 exosite-II aptamer, 400 nM; reading: higher = stronger binding; endpoint: mean fluorescence intensity; strand: GGTTGGTGTGGTTGG
Target: Prothrombin, mature alpha-thrombin (F2, Homo sapiens, UniProt P00734)
Setting: whole 15-mer aptamer, many near background
2'F-ANA at 1 2 6 7 8 10 14: 49 a.u.
2'F-ANA at 1 2 5 6 9 10 13: 70 a.u.
2'F-ANA at 4 8 9 11 13 14: 81.9 a.u.
2'F-ANA at 2 3 6 7 11 13 14 15: 342 a.u.
2'F-ANA at 2 3 4 7 8 9 10 13: 234 a.u.
2'F-ANA at 2 4 6 8 9 10 12 14 15: 79.4 a.u.
2'F-ANA at 1 2 10 11 12: 60.7 a.u.
2'F-ANA at 1 2 3 5 7 11 13 14: 63.4 a.u.
2'F-ANA at 3 4 5 7 8 9 10 14: 47.7 a.u.
2'F-ANA at 1 3 5 7 8 9 11 14: 54.3 a.u.
2'F-ANA at 3 4 6 8 9 11 13 15: 364 a.u.
2'F-ANA at 3 4 8 9 10 15: 261 a.u.
2'F-ANA at 1 2 3 6 7 8 13 14 15: 73.2 a.u.
2'F-ANA at 2 3 9 12 14 15: 491 a.u.
2'F-ANA at 4 5 13 14 15: 45.4 a.u.
2'F-ANA at 2 6 9 10 12 13 15: 127 a.u.
2'F-ANA at 5 7 8 11 14 15: 47.2 a.u.
2'F-ANA at 4 5 8 9 10 11 12 13 14: 65.1 a.u.
2'F-ANA at 1 4 8 10 12 13: 50.3 a.u.
2'F-ANA at 1 4 6 8 9 11 12 14 15: 55.2 a.u.
2'F-ANA at 1 5 7 8 9 10: 46.5 a.u.
2'F-ANA at 2 4 5 9 10 11 12 13 14: 47.9 a.u.
2'F-ANA at 2 3 6 8 9 14 15: 356 a.u.
2'F-ANA at 1 2 3 5 7 8 9 11 12 13 14: 52.8 a.u.
2'F-ANA at 1 2 3 5 6 7 8 9 10 11 12: 53.1 a.u.

Study 3 — technique: protein binding microarray; form: double-stranded DNA, one strand shown; medium: in vitro; concentration: not given; reference: not given; reading: higher = stronger binding; endpoint: E-score
Target: Histone acetyltransferase KAT6A, winged helix 1, GST fusion (KAT6A, Homo sapiens, UniProt Q92794, residues 1-85)
Setting: 8-mer, flanks averaged, mean of 2 arrays, mostly near background
Residues (chain): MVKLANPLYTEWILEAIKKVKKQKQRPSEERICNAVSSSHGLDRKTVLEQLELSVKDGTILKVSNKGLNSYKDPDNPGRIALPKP
CGAAATCG: 0.217
ACGAGGGG: -0.139
CATATACC: 0.0936
GTCGATGA: -0.0984
AGACGTCA: -0.087
AACCCATT: -0.126
CAAGGTAC: -0.0375
CGCGTGGC: 0.302
AGCCAGAG: -0.158
GGTCTACA: -0.000965
ACTGATTC: -0.0952
AGGGTGCC: -7e-05
AATCCGGT: 0.017
CAGTCATC: -0.146
CGTTGAAA: -0.1
ACTTTCAT: -0.108
AGGGGAGG: -0.193
TCCGCGGA: 0.387
AATCGTTC: -0.158
CTTTTGGA: -0.0718
CAAAGCAG: -0.21
ATTAAAAC: 0.026
AGACCCCT: -0.239
GTGTTTGA: -0.175
TCCCTCCA: 0.0215

Study 4 — Molecule: RRVLCFDS; form: peptide; reading: direction not given; endpoint: enrichment score
Cln2 (Saccharomyces cerevisiae); peptide binding, competitive growth sequencing; Saccharomyces cerevisiae, unfused Cln2 strain; peptide tiling library: -0.877
Saccharomyces cerevisiae; binding, yeast competitive growth sequencing; cyclin D1-Cln2 strain, peptide tiling library; pooled screen: -1.34
human cyclin A2; competitive growth deep sequencing; Saccharomyces cerevisiae, cyclin A2-Cln2 fusion strain; peptide tiling library: -0.0902
Saccharomyces cerevisiae; cell growth, competitive growth deep sequencing; peptide tiling library, with: cyclin F-Cln2 fusion: 2.07
peptide binding; yeast competitive growth; with: B1-Cln2 chimera: -0.59
Saccharomyces cerevisiae; binding, yeast competitive growth sequencing; cyclin A1-Cln2 strain, peptide tiling library: -1.23
Saccharomyces cerevisiae; mating pheromone growth arrest, pooled competitive growth deep sequencing; no Cln2 overexpression; peptide tiling library: -0.35

Study 5 — technique: universal PBM; form: double-stranded DNA, one strand shown; medium: in vitro; concentration: not given; reading: higher = stronger binding; endpoint: E-score
Target: Sal-like protein 4, full length isoform B (SALL4, Homo sapiens, UniProt Q9UJQ4-2, residues 1-616)
Setting: 8-mer, flanks averaged, mean of replicates
Target sequence (chain): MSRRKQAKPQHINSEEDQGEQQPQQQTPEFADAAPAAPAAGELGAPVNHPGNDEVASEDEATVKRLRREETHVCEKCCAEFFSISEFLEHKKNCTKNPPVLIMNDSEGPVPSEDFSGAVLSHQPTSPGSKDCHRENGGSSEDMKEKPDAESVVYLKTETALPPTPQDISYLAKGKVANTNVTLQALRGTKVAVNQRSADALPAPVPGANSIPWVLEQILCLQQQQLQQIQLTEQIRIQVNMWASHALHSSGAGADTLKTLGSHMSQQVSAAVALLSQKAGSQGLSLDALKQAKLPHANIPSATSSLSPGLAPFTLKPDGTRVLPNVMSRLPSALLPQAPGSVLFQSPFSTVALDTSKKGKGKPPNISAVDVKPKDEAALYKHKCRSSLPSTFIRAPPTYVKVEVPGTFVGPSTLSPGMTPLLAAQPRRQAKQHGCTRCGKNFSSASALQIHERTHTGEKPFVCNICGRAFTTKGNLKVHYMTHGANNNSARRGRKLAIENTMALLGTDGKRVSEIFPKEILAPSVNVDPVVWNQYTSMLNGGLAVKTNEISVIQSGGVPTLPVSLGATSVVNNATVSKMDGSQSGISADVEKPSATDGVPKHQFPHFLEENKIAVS
CGGCCTGC: -0.319
CCCATAGA: -0.0647
GGTAGAGA: -0.12
ATTATCAA: 0.312
CCCATTCC: -0.249
TCACGCCA: -0.0414
CTGCACTA: 0.158
CAGACATG: 0.0537
ATGGCACA: -0.0299
CCGAGACC: -0.33
ATAAGCCG: 0.0996
CGTACCGA: -0.19
AGCGCCAC: -0.325
CCGTTGGA: -0.252
ACTTCTCC: -0.076
TTCCCAAA: 0.151
ACAGACCT: -0.0288
GATTTTCC: -0.0259
CAACTGAA: -0.0345
GATACGCA: 0.0328
CTTAACCC: -0.128

Study 6 — target: OGT, full length, His-tagged (human); technique: phage display, sequencing; medium: in vitro; concentration: 1 µg OGT; reference: input library; reading: higher = stronger binding; endpoint: fold enrichment; starting sequence: peptide; VAYPNSYMPKYQIST
Setting: single substitutions, 15-mer displayed peptide, unchanged parent 6.14
VAYPNEYMPKYQIST [S6E]: 6.24 fold
VAYPQSYMPKYQIST [N5Q]: 6.73 fold
VAYPNSYMPGYQIST [K10G]: 0.825 fold
VAYPDSYMPKYQIST [N5D]: 6.44 fold
VAYPNSYRPKYQIST [M8R]: 1.45 fold
VANPNSYMPKYQIST [Y3N]: 4.49 fold
VAYPNSTMPKYQIST [Y7T]: 0.544 fold
VAYPNSYMPKFQIST [Y11F]: 0.896 fold
KAYPNSYMPKYQIST [V1K]: 2.61 fold
VAYPNSYMPKYNIST [Q12N]: 0.667 fold
VAIPNSYMPKYQIST [Y3I]: 5.45 fold
VAYPNLYMPKYQIST [S6L]: 15.6 fold
VAYPNSYMPEYQIST [K10E]: 0.308 fold
VAYPNSYMPKLQIST [Y11L]: 1.48 fold
VTYPNSYMPKYQIST [A2T]: 5.79 fold
VAYPNSYMPKYQHST [I13H]: 0.906 fold
FAYPNSYMPKYQIST [V1F]: 8.79 fold

For quick reference, copied from above (study 5):
CCGAGACC: -0.33
CGGCCTGC: -0.319
GATACGCA: 0.0328
GGTAGAGA: -0.12
CTGCACTA: 0.158
ATGGCACA: -0.0299
CGTACCGA: -0.19
CCCATTCC: -0.249
AGCGCCAC: -0.325
ATAAGCCG: 0.0996
TCACGCCA: -0.0414
CCGTTGGA: -0.252
